{"data": "Experimental data from different studies", "note": "Numbered parts are unrelated; each lists some results of a single study. Substitutions count along the parent as printed."}
{"data": "Block 1", "target": "RING finger protein unkempt homolog, zinc fingers 1-6, GST-SBP tag (UNK, Homo sapiens, UniProt Q9C0B0, residues 30-357)", "technique": "RNA Bind-n-Seq", "molecule type": "RNA", "matrix": "in vitro", "tested at": "not given", "setting": "RNA with constant flanks, human and mouse sites, ends assumed", "relative to": "input RNA pool", "reading": "higher = stronger binding", "constant ends, left off below": "GGGAGUUCUACAGUCCGACGAUC … CAACAGAGGAUUGAGCAUCA", "Construct (chain)": "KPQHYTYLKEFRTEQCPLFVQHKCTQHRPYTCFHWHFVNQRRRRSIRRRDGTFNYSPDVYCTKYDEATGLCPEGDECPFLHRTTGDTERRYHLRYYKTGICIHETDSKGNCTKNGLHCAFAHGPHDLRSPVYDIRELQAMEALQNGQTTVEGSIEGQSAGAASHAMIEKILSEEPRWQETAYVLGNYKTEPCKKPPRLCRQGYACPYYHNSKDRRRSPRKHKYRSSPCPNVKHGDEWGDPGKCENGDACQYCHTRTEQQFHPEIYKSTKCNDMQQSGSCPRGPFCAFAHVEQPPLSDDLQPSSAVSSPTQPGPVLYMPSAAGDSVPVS"}
{"Oligonucleotide": "GACCGCCUGGUAGCCUUUCCUACUAGAGUAGCAGGUGGUGUUGGAAUUACCUGUUGGAUUUUAGUCUGUAACAAAGUUGUCGCUAUUGUGCUUCAUCCGUUCAGCUGAACAGGAGGAUGG", "bound/input enrichment [ratio]": 0.71}
{"Oligonucleotide": "CAGGCGACUGAGAUGCUGUACAUGCGUCUGGACACGAUGAGUACCACGUGUGUUGACAGGUUUAUUAAUUGGUUUUCUCAUCAUCUAAGUAAUUUUCAAUUCCGUUGGAGCUGGGAAGAU", "bound/input enrichment [ratio]": 0.372}
{"Oligonucleotide": "CCCCCUUUCCCCGGUCCCAGGCUCUCCUUCGGAAAGAUGUCGGACACGGCAGUAGCUGAUACCCGGCGCCUUAACUCGAAGCCGCAGGACCUGACCGACGCUUACGGGCCGCCAAGUAAC", "bound/input enrichment [ratio]": 0.145}
{"Oligonucleotide": "ACUGAAGAAGAAAAGCAACAGAUUUUACACUCAGAAGAAUUUUUAAGUUUCUUUGACCAUUCUACGAGAAUUGUAGAAAGAGCCCUUUCUGAGCAGAUUAACAUCUUCUUUGACUACAGU", "bound/input enrichment [ratio]": 0.152}
{"Oligonucleotide": "ACAAUCUACUCUGCAACCAAGGCCUUUGUAGAUUUCUUCUCUCAGUGCCUCCAUGAGGAGUAUAAGAGCAAGGGCAUCUUUGUGCAGAGUGUCAUGCCAUACCUUGUAGCUACAAAACUG", "bound/input enrichment [ratio]": 0.198}
{"Oligonucleotide": "ACAAUGACUUCUCUAUUACAAAGAUAAGAAACGGUCCCACAAAUAAAAAAAUAAUAAUAAAUGGCUAUUUUUGAAAUUCAAAUAUUUAAAUUUUGUAAAUCAACUGUUUAGGACGUCGUG", "bound/input enrichment [ratio]": 3.17}
{"Oligonucleotide": "UCCAGUCCAAGGGAAGAGGAGAUCCCGCCCCUCUUUUGGGGUCUGGAUCCUGUGUUUCUAGCCUUUGCAAAACUCUACAUCAAGGAUAUCCUGGAGAUGAAGGAGUCCCAACAAGUGCCA", "bound/input enrichment [ratio]": 0.0815}
{"Oligonucleotide": "AAUGGUGAAUCAGGAAAGGAUGUGGAUGAUGACAAAGAUGCAAAUAAGUCUGAGAUCAGCUUAGUGUUUGAAAUUGCUCUGAAGCGAAAUAUGCCUGUCAGUUUUGAGGUUAUUAAAGAA", "bound/input enrichment [ratio]": 0.35}
{"data": "Block 2", "Change": "V78N", "target": "ABI1, truncated, D143A, DHFR fusion (Arabidopsis thaliana)", "technique": "DHFR PCA, deep sequencing", "matrix": "yeast", "setting": "methotrexate growth selection, single substitutions", "relative to": "wild-type fitted maximum", "reading": "higher = stronger binding", "starting sequence": "PYL1, truncated, DHFR fusion (Arabidopsis thaliana); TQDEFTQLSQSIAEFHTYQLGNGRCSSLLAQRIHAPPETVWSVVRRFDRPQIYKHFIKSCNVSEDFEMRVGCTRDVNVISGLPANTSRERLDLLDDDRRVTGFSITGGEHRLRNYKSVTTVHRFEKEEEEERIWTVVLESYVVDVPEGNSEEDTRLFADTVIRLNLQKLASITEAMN"}
{"conditions": "together with: (+)-ABA 0.0091 µM", "relative binding score [%]": 45.2}
{"conditions": "together with: (+)-ABA 4.8 µM", "relative binding score [%]": 17}
{"conditions": "together with: (+)-ABA 2500 µM", "relative binding score [%]": 74.7}
{"conditions": "together with: (+)-ABA 0 µM", "relative binding score [%]": 38.9}
{"conditions": "together with: (+)-ABA 200 µM", "relative binding score [%]": 33.6}
{"conditions": "together with: (+)-ABA 0.032 µM", "relative binding score [%]": 38.4}
{"data": "Block 3", "target": "Probable WRKY transcription factor 50, DNA-binding domain (WRKY50, Arabidopsis thaliana, UniProt Q8VWQ5, residues 99-173)", "technique": "DNA-protein interaction ELISA", "molecule type": "double-stranded DNA, one strand shown", "matrix": "in vitro, bacterial lysate", "tested at": "not given", "setting": "whole dsDNA probe, crude lysate protein", "relative to": "highest signal in screen", "reading": "higher = stronger binding", "Construct (chain)": "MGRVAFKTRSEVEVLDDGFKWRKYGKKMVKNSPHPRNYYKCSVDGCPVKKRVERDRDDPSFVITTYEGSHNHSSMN"}
{"Oligonucleotide": "AAAAAACAGTTCGATGTCACCCCCGCAAAA", "relative absorbance": "12.7 % of maximum"}
{"Oligonucleotide": "AAAAAATTTTGTGGTGTTTCGCCACCAAAA", "relative absorbance": "15.5 % of maximum"}
{"Oligonucleotide": "AAAAAACCCTAACGAATGCTTTTCGGAAAA", "relative absorbance": "13.1 % of maximum"}
{"Oligonucleotide": "AAAAAACATCGCTGTCGTTGACGTTGAAAA", "relative absorbance": "49.9 % of maximum"}
{"Oligonucleotide": "AAAAAAGGGTATACTCGCAGCCCCTAAAAA", "relative absorbance": "9.14 % of maximum"}
{"Oligonucleotide": "AAAAAATGGAAGGAGAGGGATGAAATAAAA", "relative absorbance": "33.3 % of maximum"}
{"Oligonucleotide": "AAAAAAATTCATGCTATTTAACCTTAAAAA", "relative absorbance": "24 % of maximum"}
{"Oligonucleotide": "AAAAAATCGCGAACGTACGTCCGCGGAAAA", "relative absorbance": "9.97 % of maximum"}
{"data": "Mixed results", "starting sequence": "viral docking peptide; TSVRRALFTGGSD"}
{"Change": "TVVRRALFTGGSD [S2V]", "target": "CCNF, cyclin fold, Cln2 fusion (human)", "assay": "yeast growth competition, sequencing", "system": "yeast", "conditions": "strong parent motif", "scale": "relative to: not given, higher = stronger binding", "measurement": "normalised enrichment score", "result": 7.81}
{"note": "Repeated from above (block 3):"}
{"Oligonucleotide": "AAAAAATTTTGTGGTGTTTCGCCACCAAAA", "relative absorbance": "15.5 % of maximum"}
{"Oligonucleotide": "AAAAAACCCTAACGAATGCTTTTCGGAAAA", "relative absorbance": "13.1 % of maximum"}
{"Oligonucleotide": "AAAAAACAGTTCGATGTCACCCCCGCAAAA", "relative absorbance": "12.7 % of maximum"}
